Published values from different studies.
Protocols differ between the studies behind these lines. Values joined by “and” are separate records of one study, mostly repeats; a detail may differ. Numbers after ± are the reported error.

O=C(O)C(Cc1c[nH]cn1)N1C(=O)c2ccc3c4ccc5c6c(ccc(c7ccc(c2c37)C1=O)c64)C(=O)N(CCN1CCCCC1)C5=O (stereo not drawn)  IC50 (telomerase; telomerase activity, inhibitor, TRAP; PC-3; 48 h): 9800 ± 400 nM
CC[n+]1cccc2cc(/C=N/NC(=O)c3cc(C(=O)N/N=C/c4ccc5c(ccc[n+]5CC)c4)ncn3)ccc21  ΔTm (telomeric G4 DNA hybrid-2; FRET melting; 1 µM, DNA 0.2 µM): 6.2 ± 0.5 °C
c1ccc(-c2n[nH]cc2-c2ccnc3ccccc23)nc1  log2 fold change (orf19.4144 Candida albicans; kinase binding, MIB/MS competition; Candida albicans lysate; 10 µM; reference: DMSO): -0.31
Fc1ccc(Nc2nc(NC3CCCCC3)c3cc(C(F)(F)F)ccc3n2)cc1F  maximal inhibition (β2AR/β1AR TM6 chimera; β-arrestin2 recruitment, antagonist, BRET; reference: isoprenaline maximal response): -1.9%
C[n+]1cccc2cc(/C=N/NC(=O)c3cncc(C(=O)N/N=C/c4ccc5c(ccc[n+]5C)c4)n3)ccc21  ΔTm (telomeric G4 DNA hybrid-2; FRET melting; 1 µM, DNA 0.2 µM, with: duplex DNA competitor 10 µM): 20.2 ± 0.6 °C
O=C(CCCCCCc1ccccc1)c1ncc(-c2ccc(CBr)cn2)o1  off-target inhibition concentration (serine hydrolases (mouse); competitive ABPP; mouse brain membrane proteome): 100 µM
C=CC(=O)N1[C@H](c2ccc3c(c2)OCO3)c2[nH]c3ccccc3c2C[C@@H]1C(=O)N1CCN(C)CC1  relative co-enrichment (human cyclin E1 N112C-3xFLAG:CDK2; co-IP with TMT proteomics, item: RPS5; concentration not given, P46782; reference: wild type DMSO): 104%
C=CC(=O)Nc1cccc(Cn2ncc3cnc(Nc4cnn(CCOC)c4)nc32)c1  binding (human ABL1(F317L)-phosphorylated; KINOMEscan; 100 nM; reference: control): 24%
Fc1ccc(Nc2nc(NC3CCCCC3)c3ccccc3n2)cc1F  pIC50 (β2AR/β1AR TM6 chimera; β-arrestin2 recruitment, antagonist, BRET; with: isoprenaline 1 µM): 5.9
NCCOc1cc(NC(=O)c2cc(Cl)cc(C(=O)Nc3cc(OCCN)c4ccccc4n3)n2)nc2ccccc12  ΔTm (K-ras G-quadruplex DNA; FRET melting; 1 µM, pH 7.4, with: 60 mM potassium): 25.7 ± 0.7 K
O=C(N/N=C/c1cc[n+](CC2CC2)c2ccccc12)C(=O)N/N=C/c1cc[n+](CC2CC2)c2ccccc12  ΔTm (telomeric G4 DNA hybrid-2; FRET melting; 1 µM, DNA 0.2 µM): 4.1 ± 0.9 °C
O=S(=O)(NCc1ccncc1)c1ccc(C2CCCCC2)cc1  EC50 (PU.1, mouse; reporter gene, inhibitor, luminescence; BV-2 PU.1 luciferase reporter; Asinex batch): 9 nM
CN1CCCNC(=O)CC2(CCCCC2)CC(=O)NCCCN(C)CCCNc2cccc3c2C(=O)c2cccc(c2C3=O)NCCC1  ΔTm (c-myc G-quadruplex DNA; DNA thermal stabilisation, CD melting; 4.5 µM, pH 7.4, with: 1.5 µM DNA, 5 mM KCl): 10.4 ± 0.9 °C
CC[n+]1cccc2cc(/C=N/NC(=O)c3cccc(C(=O)N/N=C/c4ccc5c(ccc[n+]5CC)c4)n3)ccc21  ΔTm (telomeric G4 DNA hybrid-2; FRET melting; 1 µM, DNA 0.2 µM, with: duplex DNA competitor 10 µM): 20.5 ± 1.3 °C
NCCCn1cc(COc2cc(C(=O)Nc3cc(OCCN)c4ccccc4n3)nc(C(=O)Nc3cc(OCCN)c4ccccc4n3)c2)nn1  ΔTm (K-ras G-quadruplex DNA; FRET melting; 1 µM, pH 7.4, with: 60 mM potassium): 5.8 ± 0.3 K
C[n+]1ccc(/C=N/NC(=O)c2cccc(C(=O)N/N=C/c3cc[n+](C)c4ccccc34)c2)c2ccccc21  ΔTm (telomeric G4 DNA hybrid-2; FRET melting; 1 µM, DNA 0.2 µM): 13.7 ± 0.8 °C
CC(C)(C)c1ccc(C(=O)N2Cc3cccnc3Nc3ccccc32)cc1  IC50 (IDH1 R132H; 2-HG production, RapidFire MS; MOG-G-UVW overexpressing IDH1 R132H): 1690 nM and 1460 nM and 1140 nM
O=C(N/N=C/c1cc[n+](Cc2ccccc2)c2ccccc12)c1cccc(C(=O)N/N=C/c2cc[n+](Cc3ccccc3)c3ccccc23)c1  ΔTm (telomeric G4 DNA hybrid-2; FRET melting; 1 µM, DNA 0.2 µM): 13.6 ± 1.3 °C
OB1c2sccc2C=NN1Cc1ccccc1  IC50 (human pancreatic chymotrypsin; enzyme activity, inhibitor): > 100000 nM
O=C(N/N=C/c1cc[n+](Cc2ccccc2)c2ccccc12)c1ccc2ccc3ccc(C(=O)N/N=C/c4cc[n+](Cc5ccccc5)c5ccccc45)nc3c2n1  ΔTm (telomeric G4 DNA hybrid-2; FRET melting; 1 µM, DNA 0.2 µM, with: duplex DNA competitor 10 µM): 29 ± 0.8 °C
Nc1ncc(-c2cc(-c3cnn(CC(F)(F)F)c3)ncc2F)nc1C(=O)NC1CNCC(F)C1 (stereo not drawn)  remaining binding (LYN; KINOMEscan; 1 µM; reference: DMSO control): 100%

Some of these lines once more:
CC(C)(C)c1ccc(C(=O)N2Cc3cccnc3Nc3ccccc32)cc1  IC50 (IDH1 R132H; 2-HG production, RapidFire MS; MOG-G-UVW overexpressing IDH1 R132H): 1690 nM and 1460 nM and 1140 nM
C=CC(=O)N1[C@H](c2ccc3c(c2)OCO3)c2[nH]c3ccccc3c2C[C@@H]1C(=O)N1CCN(C)CC1  relative co-enrichment (human cyclin E1 N112C-3xFLAG:CDK2; co-IP with TMT proteomics, item: RPS5; concentration not given, P46782; reference: wild type DMSO): 104%
C[n+]1cccc2cc(/C=N/NC(=O)c3cncc(C(=O)N/N=C/c4ccc5c(ccc[n+]5C)c4)n3)ccc21  ΔTm (telomeric G4 DNA hybrid-2; FRET melting; 1 µM, DNA 0.2 µM, with: duplex DNA competitor 10 µM): 20.2 ± 0.6 °C
